# Published values gathered from unrelated publications.
# Numbered parts are unrelated; each lists some results of a single study.
# Chain of UniProt Q15349 (whole entry, looked up): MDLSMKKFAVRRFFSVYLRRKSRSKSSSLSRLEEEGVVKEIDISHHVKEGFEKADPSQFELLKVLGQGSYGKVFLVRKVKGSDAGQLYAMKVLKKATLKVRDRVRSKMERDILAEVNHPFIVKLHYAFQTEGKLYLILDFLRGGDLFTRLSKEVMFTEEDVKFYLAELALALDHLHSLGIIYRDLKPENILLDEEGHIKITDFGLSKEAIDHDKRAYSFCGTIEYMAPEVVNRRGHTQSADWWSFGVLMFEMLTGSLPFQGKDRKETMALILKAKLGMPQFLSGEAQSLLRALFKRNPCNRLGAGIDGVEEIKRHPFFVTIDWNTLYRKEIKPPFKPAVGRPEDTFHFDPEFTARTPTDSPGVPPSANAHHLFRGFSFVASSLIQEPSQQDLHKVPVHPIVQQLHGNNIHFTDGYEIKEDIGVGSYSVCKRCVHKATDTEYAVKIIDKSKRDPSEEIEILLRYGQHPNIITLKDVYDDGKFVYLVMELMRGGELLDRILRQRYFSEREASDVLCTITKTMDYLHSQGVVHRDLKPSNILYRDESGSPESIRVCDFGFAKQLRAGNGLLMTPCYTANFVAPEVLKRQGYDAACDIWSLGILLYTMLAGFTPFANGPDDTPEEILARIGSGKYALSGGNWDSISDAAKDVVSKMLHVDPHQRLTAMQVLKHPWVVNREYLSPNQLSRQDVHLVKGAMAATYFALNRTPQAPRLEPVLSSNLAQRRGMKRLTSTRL
# Chain of UniProt Q86YV6 (whole entry, looked up): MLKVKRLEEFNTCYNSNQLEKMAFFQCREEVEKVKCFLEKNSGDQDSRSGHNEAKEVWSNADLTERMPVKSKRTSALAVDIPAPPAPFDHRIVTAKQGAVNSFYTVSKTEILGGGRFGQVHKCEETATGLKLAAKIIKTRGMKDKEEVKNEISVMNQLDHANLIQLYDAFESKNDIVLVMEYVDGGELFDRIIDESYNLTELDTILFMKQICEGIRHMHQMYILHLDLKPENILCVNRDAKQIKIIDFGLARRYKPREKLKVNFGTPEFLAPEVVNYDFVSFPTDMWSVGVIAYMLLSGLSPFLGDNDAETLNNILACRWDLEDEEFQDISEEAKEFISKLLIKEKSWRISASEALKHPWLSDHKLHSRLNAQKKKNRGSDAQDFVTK

# Block 1
# Target: Centromere-binding protein 1, full length, His-tagged (CBF1, Saccharomyces cerevisiae, UniProt P17106, residues 1-351)
# Chain of UniProt P17106 (whole entry, looked up): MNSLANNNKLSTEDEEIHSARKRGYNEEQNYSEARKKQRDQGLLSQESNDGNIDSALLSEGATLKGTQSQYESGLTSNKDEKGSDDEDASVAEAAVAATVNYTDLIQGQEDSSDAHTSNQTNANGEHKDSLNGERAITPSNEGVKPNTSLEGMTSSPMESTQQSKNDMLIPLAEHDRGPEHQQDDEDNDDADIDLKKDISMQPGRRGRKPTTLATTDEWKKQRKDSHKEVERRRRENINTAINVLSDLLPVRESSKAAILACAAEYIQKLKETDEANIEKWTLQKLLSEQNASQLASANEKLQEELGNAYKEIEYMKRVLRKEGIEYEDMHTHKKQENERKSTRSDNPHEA
# Technique: competition protein-binding microarray
# Form: double-stranded DNA, one strand shown
# Medium: in vitro
# Concentration: 2 µM
# Setting: whole 60-bp probe, lowest competitor level
# Added: Pho4 competitor, 0.05 µM
# Direction: higher = stronger binding
# Shared flanks, not repeated: … GTCTTGATTCGCTTGACGCTGCTG
Sequence,fluorescence intensity
CTTTCCCGATCTTTTCACGTGGAGTTAGCACATTTG,486 a.u.
GAAGAGGAGTCTTTGCACGTGTTTCAGTATGCTAAT,1610 a.u.
GAAATAAAAGTACCTTCCGTGATGGTCTTGGTACCA,55.7 a.u.
AACTGCAGGGTCTGGCACGGCAACACAAGGCTATTG,56.6 a.u.
TCGGACTAGACGCTGGGCGTGCATCGCCAGTGAAAA,50.1 a.u.
AAATTACTAAGTTGTTTGGTGGGTGACGCCGTATGA,64.8 a.u.
TGCGCAACAACTTGCCTTGTGGGTGTATGTCTAGAA,57 a.u.
GTCTTGTCTCATTGAAGCGTGGGTGTCCCCACTTCA,78.8 a.u.

# Block 2
# Target: Protein C-ets-1, full length (ETS1, Homo sapiens, UniProt P14921, residues 1-441)
# Chain of UniProt P14921 (whole entry, looked up): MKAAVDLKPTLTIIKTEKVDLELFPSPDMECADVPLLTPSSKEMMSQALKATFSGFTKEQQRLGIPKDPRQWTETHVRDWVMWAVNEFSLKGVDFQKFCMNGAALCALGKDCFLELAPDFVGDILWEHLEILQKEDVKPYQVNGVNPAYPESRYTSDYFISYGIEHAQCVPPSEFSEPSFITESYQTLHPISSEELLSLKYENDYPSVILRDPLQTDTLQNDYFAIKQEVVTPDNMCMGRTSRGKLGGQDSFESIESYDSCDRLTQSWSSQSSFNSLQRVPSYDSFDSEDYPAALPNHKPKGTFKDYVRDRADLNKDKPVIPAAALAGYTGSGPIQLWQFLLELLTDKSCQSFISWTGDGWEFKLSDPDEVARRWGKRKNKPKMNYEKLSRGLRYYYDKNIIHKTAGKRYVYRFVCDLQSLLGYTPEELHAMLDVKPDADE
# Technique: protein-binding microarray
# Form: hairpin DNA
# Medium: in vitro
# Concentration: not given
# Setting: whole hairpin DNA, median over replicate spots
# Reference: not given
# Direction: higher = stronger binding
# Shared flanks, not repeated: GAGGCCAG … CTGGCCTCACACTC
Sequence,median fluorescence
TCGGCGGTTGCCTCCTGGCAACCGCCGA (5mC at 13),552 a.u.
TCGGACGTTGCCTCCTGGCAACGTCCGA (5mC at 14 30),738 a.u.
TCGGATGTTGCCTCCTGGCAACATCCGA,2300 a.u.
CCGCGAGTTGCCTCCTGGCAACTCGCGG,558 a.u.
TCGCAAGTTGCCTCCTGGCAACTTGCGA,520 a.u.
TGGGAAGTTGCCTCCTGGCAACTTCCCA (5mC at 35),1260 a.u.
CTGGAAGTTGCCTCCTGGCAACTTCCAG,771 a.u.
CCGGTAGTTGCCTCCTGGCAACTACCGG,774 a.u.

# Block 3
# Target: Protein-tyrosine kinase 6 (PTK6, Homo sapiens, UniProt Q13882)
# Chain of UniProt Q13882 (whole entry, looked up): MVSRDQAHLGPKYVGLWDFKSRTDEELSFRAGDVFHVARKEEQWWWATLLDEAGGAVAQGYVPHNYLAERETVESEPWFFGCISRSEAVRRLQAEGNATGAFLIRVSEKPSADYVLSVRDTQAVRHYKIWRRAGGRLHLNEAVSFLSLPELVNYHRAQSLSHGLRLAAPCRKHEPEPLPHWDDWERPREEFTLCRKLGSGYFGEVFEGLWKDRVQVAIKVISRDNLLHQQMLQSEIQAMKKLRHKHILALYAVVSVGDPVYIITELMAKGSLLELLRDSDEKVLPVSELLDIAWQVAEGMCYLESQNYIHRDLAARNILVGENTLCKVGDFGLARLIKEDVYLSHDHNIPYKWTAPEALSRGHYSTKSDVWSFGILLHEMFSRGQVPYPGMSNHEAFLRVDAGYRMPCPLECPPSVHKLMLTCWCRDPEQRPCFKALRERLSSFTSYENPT
# Observed: enzyme activity
# Action: inhibitor
# Concentration: 0.5 µM
# Reference: control
SMILES,remaining activity [%]
CC(C)[C@H](CO)Nc1nc(Nc2cc(N)cc(Cl)c2)c2ncn(C(C)C)c2n1,85.6
COc1cc2nccc(Oc3ccc(NC(=S)NC(=O)c4ccccc4C)cc3)c2cc1OC,33.9
Cn1sc(=O)n(Cc2ccccc2)c1=O,96.7
Oc1ccc(-c2nc(-c3ccncc3)c(-c3ccc(F)cc3)[nH]2)cc1,50.3
Nc1[nH]nc2nc3ccccc3nc12,84.1
O=C(CCCc1ccc(-c2ccccc2F)cc1)Nc1ccc(O)cc1,102
COc1ccc(CNC(=O)Nc2ncc([N+](=O)[O-])s2)cc1,99.6
O=c1c2ccccc2[nH]c(=S)n1CCN1CCC(=C(c2ccc(F)cc2)c2ccc(F)cc2)CC1,100
COc1ccc(C(=O)Nc2sc3c(c2C(N)=O)CCCC3)cc1OC,97.8
Cc1ccc(NC(=O)c2ccc(CN3CCN(C)CC3)cc2)cc1Nc1nc(-c2cccnc2)cs1,79.2
CN(C)c1ccc(C=C2C(=O)Nc3ccccc32)cc1,98.8
C#Cc1cccc(Nc2ncnc3cc(OCCOC)c(OCCOC)cc23)c1,85.9
O=C1NC(=O)C(c2cn(CCCO)c3ncccc23)=C1c1cnccn1,101
CNC(=O)c1cc(Oc2ccc(NC(=O)Nc3ccc(Cl)c(C(F)(F)F)c3)cc2)ccn1,96.9
Cn1c2ccccc2c2c3c(c4c5ccccc5n(CCC#N)c4c21)CNC3=O,38.7

# Block 4
# Compound: CS(=O)(=O)NCC[C@H](NC(=O)c1cncc2c1cnn2-c1ccc(F)cc1)c1ccnc(S(C)(=O)=O)c1
# Observed: cell-free assay
# Technique: competition with immobilised ligand
# Concentration: 1 µM
target,remaining binding
"MYLK4 (Homo sapiens, UniProt Q86YV6)",100%
"SRC (Homo sapiens, UniProt P12931)",96%
"EGFR (Homo sapiens, UniProt P00533, del746-750)",92%
"DYRK1B (Homo sapiens, UniProt Q9Y463)",100%
"Ribosomal protein S6 kinase alpha-2, N-terminal kinase domain (RPS6KA2, Homo sapiens, UniProt Q15349)",100%
